Experimental data of several laboratories.
Effect on: binding
Sequence of UniProt O15075 (whole entry, looked up): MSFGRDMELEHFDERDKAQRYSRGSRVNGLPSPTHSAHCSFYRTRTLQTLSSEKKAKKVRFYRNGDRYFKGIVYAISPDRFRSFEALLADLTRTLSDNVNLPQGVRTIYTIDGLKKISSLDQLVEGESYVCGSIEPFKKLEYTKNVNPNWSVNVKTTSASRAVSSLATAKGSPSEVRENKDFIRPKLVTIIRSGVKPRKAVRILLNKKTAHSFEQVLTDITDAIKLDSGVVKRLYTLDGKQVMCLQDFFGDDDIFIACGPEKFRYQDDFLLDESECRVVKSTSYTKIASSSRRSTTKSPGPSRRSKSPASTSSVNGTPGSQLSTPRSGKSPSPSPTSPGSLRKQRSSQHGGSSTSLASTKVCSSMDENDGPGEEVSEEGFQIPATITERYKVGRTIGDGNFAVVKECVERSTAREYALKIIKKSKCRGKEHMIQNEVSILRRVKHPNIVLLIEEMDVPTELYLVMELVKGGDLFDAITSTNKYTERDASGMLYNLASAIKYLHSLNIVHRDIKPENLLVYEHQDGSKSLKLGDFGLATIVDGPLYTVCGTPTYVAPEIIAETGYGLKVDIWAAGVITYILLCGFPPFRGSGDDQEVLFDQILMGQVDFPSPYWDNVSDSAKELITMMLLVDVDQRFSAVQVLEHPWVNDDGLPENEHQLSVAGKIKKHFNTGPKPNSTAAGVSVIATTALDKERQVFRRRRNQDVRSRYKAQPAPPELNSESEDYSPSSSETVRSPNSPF
Sequence of UniProt P10721 (whole entry, unmodified, looked up): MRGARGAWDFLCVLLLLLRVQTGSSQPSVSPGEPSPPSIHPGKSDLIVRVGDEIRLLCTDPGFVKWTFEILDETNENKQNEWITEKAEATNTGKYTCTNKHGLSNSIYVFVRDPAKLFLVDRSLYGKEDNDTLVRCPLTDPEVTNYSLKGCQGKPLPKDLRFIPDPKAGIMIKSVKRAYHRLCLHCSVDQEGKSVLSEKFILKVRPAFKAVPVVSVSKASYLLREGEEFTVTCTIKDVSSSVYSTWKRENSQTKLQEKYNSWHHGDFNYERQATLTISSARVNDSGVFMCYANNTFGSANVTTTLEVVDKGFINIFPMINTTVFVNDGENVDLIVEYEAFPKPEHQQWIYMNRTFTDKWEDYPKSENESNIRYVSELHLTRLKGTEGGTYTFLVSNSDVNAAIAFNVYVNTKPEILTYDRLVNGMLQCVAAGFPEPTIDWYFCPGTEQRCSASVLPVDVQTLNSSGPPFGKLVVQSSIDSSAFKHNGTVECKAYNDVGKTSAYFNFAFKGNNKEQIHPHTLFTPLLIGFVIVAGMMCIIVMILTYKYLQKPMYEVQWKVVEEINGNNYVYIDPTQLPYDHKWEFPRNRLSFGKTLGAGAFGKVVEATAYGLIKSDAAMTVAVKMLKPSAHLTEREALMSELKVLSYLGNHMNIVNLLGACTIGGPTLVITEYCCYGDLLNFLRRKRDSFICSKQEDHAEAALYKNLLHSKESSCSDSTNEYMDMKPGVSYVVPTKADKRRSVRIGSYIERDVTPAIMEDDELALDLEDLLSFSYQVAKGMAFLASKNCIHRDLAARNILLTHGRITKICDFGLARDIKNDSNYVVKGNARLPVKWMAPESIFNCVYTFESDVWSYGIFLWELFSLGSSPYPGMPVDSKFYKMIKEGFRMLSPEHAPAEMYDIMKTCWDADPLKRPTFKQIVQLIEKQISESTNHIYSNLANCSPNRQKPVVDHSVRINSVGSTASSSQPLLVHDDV
Sequence of UniProt O75716 (whole entry, looked up): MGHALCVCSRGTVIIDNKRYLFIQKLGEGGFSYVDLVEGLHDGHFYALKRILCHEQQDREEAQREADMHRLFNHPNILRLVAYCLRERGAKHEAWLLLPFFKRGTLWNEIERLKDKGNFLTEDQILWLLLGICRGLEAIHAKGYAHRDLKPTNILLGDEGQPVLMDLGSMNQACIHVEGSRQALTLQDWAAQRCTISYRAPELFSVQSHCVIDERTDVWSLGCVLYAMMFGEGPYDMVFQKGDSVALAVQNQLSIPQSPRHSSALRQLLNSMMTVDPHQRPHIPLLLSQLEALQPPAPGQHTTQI
Sequence of UniProt Q8TDR2 (whole entry, looked up): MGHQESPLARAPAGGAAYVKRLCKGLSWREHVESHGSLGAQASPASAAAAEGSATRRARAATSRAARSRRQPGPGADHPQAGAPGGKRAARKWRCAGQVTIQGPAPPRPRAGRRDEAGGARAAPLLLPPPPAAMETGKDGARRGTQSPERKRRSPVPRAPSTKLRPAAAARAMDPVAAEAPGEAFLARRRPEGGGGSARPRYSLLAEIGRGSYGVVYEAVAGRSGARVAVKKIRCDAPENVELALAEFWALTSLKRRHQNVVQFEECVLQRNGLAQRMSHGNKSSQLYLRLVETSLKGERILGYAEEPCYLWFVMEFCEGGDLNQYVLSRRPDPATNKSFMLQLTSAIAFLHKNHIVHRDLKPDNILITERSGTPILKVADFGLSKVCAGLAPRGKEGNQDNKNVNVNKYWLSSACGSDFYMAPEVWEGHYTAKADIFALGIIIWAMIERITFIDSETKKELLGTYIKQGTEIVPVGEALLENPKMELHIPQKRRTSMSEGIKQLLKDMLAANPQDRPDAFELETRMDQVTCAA
Sequence of UniProt O75582 (whole entry, looked up): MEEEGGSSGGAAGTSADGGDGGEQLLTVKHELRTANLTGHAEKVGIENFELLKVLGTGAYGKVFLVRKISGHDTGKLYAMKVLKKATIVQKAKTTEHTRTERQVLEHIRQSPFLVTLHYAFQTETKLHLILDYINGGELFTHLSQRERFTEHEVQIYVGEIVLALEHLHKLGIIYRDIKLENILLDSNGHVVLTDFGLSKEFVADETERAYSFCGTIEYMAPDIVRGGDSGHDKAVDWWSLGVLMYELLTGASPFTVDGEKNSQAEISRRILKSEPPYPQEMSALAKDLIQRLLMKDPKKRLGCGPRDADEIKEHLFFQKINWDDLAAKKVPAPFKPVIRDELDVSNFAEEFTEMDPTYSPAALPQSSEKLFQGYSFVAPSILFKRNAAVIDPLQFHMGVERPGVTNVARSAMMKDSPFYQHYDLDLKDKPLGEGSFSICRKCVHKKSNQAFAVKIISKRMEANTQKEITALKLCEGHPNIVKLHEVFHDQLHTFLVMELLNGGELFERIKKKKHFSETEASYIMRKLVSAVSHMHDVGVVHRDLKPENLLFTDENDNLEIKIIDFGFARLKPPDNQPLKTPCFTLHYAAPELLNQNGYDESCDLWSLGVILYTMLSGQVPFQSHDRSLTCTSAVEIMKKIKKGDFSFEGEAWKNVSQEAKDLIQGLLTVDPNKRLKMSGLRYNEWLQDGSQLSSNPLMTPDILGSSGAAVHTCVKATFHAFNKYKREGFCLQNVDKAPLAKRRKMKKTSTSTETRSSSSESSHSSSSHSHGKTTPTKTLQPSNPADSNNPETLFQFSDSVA
Sequence of UniProt P42679 (whole entry, looked up): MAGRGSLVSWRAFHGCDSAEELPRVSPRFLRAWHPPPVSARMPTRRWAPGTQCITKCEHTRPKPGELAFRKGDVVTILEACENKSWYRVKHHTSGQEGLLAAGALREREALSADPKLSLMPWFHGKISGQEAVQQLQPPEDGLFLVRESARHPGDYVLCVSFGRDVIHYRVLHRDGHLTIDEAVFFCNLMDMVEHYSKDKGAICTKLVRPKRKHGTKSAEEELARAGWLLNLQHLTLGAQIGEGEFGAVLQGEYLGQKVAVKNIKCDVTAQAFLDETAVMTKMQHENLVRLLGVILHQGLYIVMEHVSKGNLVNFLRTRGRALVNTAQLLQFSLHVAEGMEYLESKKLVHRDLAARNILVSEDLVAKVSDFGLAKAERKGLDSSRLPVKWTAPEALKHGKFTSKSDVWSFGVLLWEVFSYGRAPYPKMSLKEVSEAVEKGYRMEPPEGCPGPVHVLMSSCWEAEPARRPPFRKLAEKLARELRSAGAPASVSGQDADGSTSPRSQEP

C[C@]1(O)CCCN(c2nc(Nc3ccc(S(=O)(=O)N[C@H]4CC[C@H](CN5CCN(c6ccc(C7CCC(=O)NC7=O)cc6F)CC5)CC4)cc3Cl)ncc2C(F)(F)F)C1 (some centres unmarked)  remaining binding (Serine/threonine-protein kinase 16 (STK16, Homo sapiens, UniProt O75716); competition with immobilised ligand; 1 µM): 100%
CN(c1nccc(-c2cnn3ncccc23)n1)C1CC1  remaining binding (Serine/threonine-protein kinase 35 (STK35, Homo sapiens, UniProt Q8TDR2); 1 µM): 100%
Cc1cc([C@@H](C)Nc2ccccc2C(=O)O)c2nc(N3CCC(F)(F)CC3)c(C#N)c(=O)n2c1  remaining binding (Serine/threonine-protein kinase DCLK1 (DCLK1, Homo sapiens, UniProt O15075); competition with immobilised ligand; 10 µM): 100%
C1=C/COCc2cc(ccc2OCCN2CCCC2)Nc2nccc(n2)-c2cccc(c2)COC/1  remaining binding (Mast/stem cell growth factor receptor Kit (KIT, Homo sapiens, UniProt P10721, D816H); 0.1 µM): 40%
C=CC(=O)N1CCC(COCC(=O)N2CCN(c3nc(-c4cnc(N)nc4C(F)F)nc(N4CCOC[C@@H]4C)n3)CC2)CC1  remaining binding (Megakaryocyte-associated tyrosine-protein kinase (MATK, Homo sapiens, UniProt P42679); competition with immobilised ligand; 1 µM): 100%
COc1ccc2oc(-c3ccc4nc(N)oc4c3)c/c(=N\c3ccccc3NC(=O)CCN)c2c1  remaining binding (DNA-dependent protein kinase catalytic subunit (PRKDC, Homo sapiens, UniProt P78527); 1 µM): 107%
FC(F)(F)Oc1cccc(-c2cnc3ccc(-c4ccncc4)nn23)c1  remaining binding (Ribosomal protein S6 kinase alpha-5, C-terminal kinase domain (RPS6KA5, Homo sapiens, UniProt O75582); competition with immobilised ligand; 5 µM): 76%
CCCCC(=O)Nc1ccc(-c2ccc3ncn(CCC)c(=O)c3c2)cn1  remaining binding (Serine/threonine-protein kinase MRCK alpha (CDC42BPA, Homo sapiens, UniProt Q5VT25); competition with immobilised ligand; 0.5 µM): 100%
